Assay results pooled from the literature.
Compare with care: the assays were run in different laboratories. Numbers after ± are the reported error.

| SMILES | test | system | setting | tissue uptake [%ID/g] |
| --- | --- | --- | --- | --- |
| CC[C@H](C)[C@H](NC(=O)[C@H](CCCCN)NC(=O)CNC(=O)[C@H](CC(C)C)NC(=O)[C@H](Cc1ccccc1)NC(=O)[C@H](CCCCN)NC(=O)[C@H](CO)NC(=O)[C@H](Cc1ccccc1)NC(=O)[C@H](Cc1c[nH]c2ccccc12)NC(=O)[C@H](CCC(N)=O)NC(=O)[C@@H](NC(=O)[C@H](Cc1ccccc1)NC(=O)CCCCCNC(=O)CN1CCN(CC(=O)O)CCN(CC(=O)O)CCN(CC(=O)O)CC1)C(C)C)C(=O)N[C@@H](CCC(=O)O)C(=O)N1CCC[C@H]1C(=O)N[C@@H](CC(=O)O)C(=O)N[C@H](C(=O)N[C@@H](CO)C(=O)N[C@@H](CCC(N)=O)C(=O)N[C@H](C(=O)N[C@@H](CCC(N)=O)C(=O)N[C@@H](CC(=O)O)C(=O)N1CCC[C@H]1C(=O)N[C@@H](CC(N)=O)C(=O)N[C@@H](CC(=O)O)C(=O)N[C@@H](CCC(N)=O)C(=O)N[C@@H](Cc1ccc(O)cc1)C(=O)N[C@@H](CCC(=O)O)C(=O)N1CCC[C@H]1C(=O)N[C@@H](Cc1ccccc1)C(=O)O)C(C)C)C(C)C [copper-64 labelled] | – | C57BL/6 mice, lung | with: LPS 3 mg/kg intratracheal | 4.14 ± 0.09 |
| CSCC[C@H](NC(=O)CNC(=O)[C@H](CCCCN)NC(=O)[C@H](CC(C)C)NC(=O)[C@@H]1CCCN1C(=O)[C@H](CO)NC(=O)[C@H](Cc1c[nH]cn1)NC(=O)[C@H](Cc1c[nH]c2ccccc12)NC(=O)[C@H](CCCNC(=N)N)NC(=O)[C@H](CC(C)C)NC(=O)[C@H](CCCNC(=N)N)NC(=O)[C@H](Cc1c[nH]c2ccccc12)NC(=O)[C@H](CS)NC(=O)CCCCCNC(=O)CN1CCN(CC(=O)O)CCN(CC(=O)O)CCN(CC(=O)O)CC1)C(=O)O [copper-64 labelled] | ex vivo biodistribution | BALB/c nude mice, stomach | intravenous, dose not given, 2 h, Huh-7 tumour-bearing | 2.25 |
| CC[C@H](C)[C@H](NC(=O)[C@@H](Cc1c[nH]c2ccccc12)NC(=O)[C@@H]1CCCN1C(=O)[C@H](CCCCN)NC(=O)[C@H](CCCCN)NC(=O)CCNC(=O)CCNC(=O)CN1CCN(CC(=O)O)CCN(CC(=O)O)CCN(CC(=O)O)CC1)C(=O)N[C@@H](C[Si](C)(C)C)C(=O)O [gallium-68 labelled] | ex vivo biodistribution | nude mice, HT-29 xenograft, spleen | 90 min, with: levocabastine 0.5 µmol | 0.69 ± 0.04 |
| CC(C)C[C@@H](NC(=O)[C@@H](CCCNC(=N)N)NC(=O)[C@@H](Cc1c[nH]cn1)NC(=O)[C@@H](Cc1c[nH]c2ccccc12)NC(=O)[C@@H](Cc1c[nH]cn1)NC(=O)[C@@H](Cc1ccccc1)NC(=O)[C@H](NC(=O)[C@@H](Cc1ccc(O)cc1)NC(=O)CNC(=O)CNC(=O)CCOCCOCCOCCNC(=O)CN1CCN(CC(=O)O)CCN(CC(=O)O)CC1)[C@H](C)O)C(=O)N[C@H](CC(N)=O)C(=O)N1CCC[C@@H]1C(=O)O [gallium-68 labelled] | – | C57BL/6 mice, male, brain | intravenous, 1.85 MBq, 60 min, with: blocking antibody | 0.73 ± 0.23 |
| CC[C@H](C)[C@H](NC(=O)[C@H](CCCNC(=N)N)NC(=O)[C@H](CCCCN)NC(=O)[C@H](Cc1ccc(O)cc1)NC(=O)[C@H](CC(=O)O)NC(=O)[C@H](C)NC(=O)CNC(=O)CCOCCOCCOCCNC(=O)CN1CCN(CC(=O)O)CCN(CC(=O)O)CCN(CC(=O)O)CC1)C(=O)N[C@H](C(=O)N[C@H](C(=O)N[C@@H](CCCCN)C(=O)N[C@H](C(=O)N[C@@H](CC(N)=O)C(N)=O)C(C)C)C(C)C)[C@@H](C)O [copper-64 labelled] | ex vivo gamma counting | C57BL/6J male mice, B16-F10 tumour, muscle | intravenous, 1.85 MBq, 20 min | 1.08 ± 0.485 |
| C[C@H](O)[C@@H](NC(=O)[C@H]1CCCN1C(=O)[C@@H](CCCCN)NC(=O)[C@@H](CO)NC(=O)[C@@H](Cc1ccc(O)cc1)NC(=O)[C@@H](CC(N)=O)NC(=O)CCOCCOCCOCCNC(=O)CN1CCN(CC(=O)O)CCN(CC(=O)O)CCN(CC(=O)O)CC1)C(=O)N[C@H](CC(=O)O)C(=O)N[C@H](CCCNC(=N)N)C(=O)N[C@H](CCC(N)=O)C(=O)N[C@H](Cc1ccc(O)cc1)C(=O)N[C@H](Cc1c[nH]cn1)C(=O)N[C@H](Cc1ccccc1)C(N)=O [copper-64 labelled] | – | C57BL/6J mice, pancreas | intravenous, 1.85 MBq, 0.6667 h, radiolabelled | 0.33 ± 0.01 |
| CC[C@H](C)[C@H](NC(=O)[C@H](CCCNC(=N)N)NC(=O)[C@H](CCCCN)NC(=O)[C@H](Cc1ccc(O)cc1)NC(=O)[C@H](CC(=O)O)NC(=O)[C@H](C)NC(=O)CNC(=O)CCOCCOCCOCCNC(=O)CN1CCN(CC(=O)O)CCN(CC(=O)O)CCN(CC(=O)O)CC1)C(=O)N[C@H](C(=O)N[C@@H](CC(C)C)C(=O)N[C@@H](CCCCN)C(=O)N[C@H](C(=O)N[C@@H](CC(N)=O)C(N)=O)C(C)C)[C@@H](C)O [copper-64 labelled] | ex vivo gamma counting | C57BL/6J male mice, B16-F10 tumour, muscle | intravenous, 1.85 MBq, 5 min | 1.39 ± 0.404 |
| CCCC[C@H]1C(=O)N(C)[C@@H](CCCC)C(=O)N[C@@H](CCCNC(=O)CN2CCN(CC(=O)O)CCN(CC(=O)O)CCN(CC(=O)O)CC2)C(=O)N[C@H](C(=O)NCC(N)=O)CSCC(=O)N[C@@H](Cc2ccc(O)cc2)C(=O)N(C)[C@@H](C)C(=O)N[C@@H](CC(N)=O)C(=O)N2CCC[C@H]2C(=O)N[C@@H](Cc2c[nH]cn2)C(=O)N[C@@H](CC(C)C)C(=O)N(C)CC(=O)N[C@@H](Cc2c[nH]c3ccccc23)C(=O)N[C@@H](CO)C(=O)N[C@@H](Cc2c[nH]c3ccccc23)C(=O)N1C [gallium-68 labelled] | – | NOD/SCID mice, CHO-hPD-L1 xenograft, pancreas | 60 min, atezolizumab 10 mg/kg pretreatment | 1.88 ± 0.28 |

Some of these lines once more:
| SMILES | test | system | setting | tissue uptake [%ID/g] |
| --- | --- | --- | --- | --- |
| CC(C)C[C@@H](NC(=O)[C@@H](CCCNC(=N)N)NC(=O)[C@@H](Cc1c[nH]cn1)NC(=O)[C@@H](Cc1c[nH]c2ccccc12)NC(=O)[C@@H](Cc1c[nH]cn1)NC(=O)[C@@H](Cc1ccccc1)NC(=O)[C@H](NC(=O)[C@@H](Cc1ccc(O)cc1)NC(=O)CNC(=O)CNC(=O)CCOCCOCCOCCNC(=O)CN1CCN(CC(=O)O)CCN(CC(=O)O)CC1)[C@H](C)O)C(=O)N[C@H](CC(N)=O)C(=O)N1CCC[C@@H]1C(=O)O [gallium-68 labelled] | – | C57BL/6 mice, male, brain | intravenous, 1.85 MBq, 60 min, with: blocking antibody | 0.73 ± 0.23 |
